Measurements gathered from unrelated publications.
Lines come from different studies, so protocols differ. Converted amounts (≈) assume the structure as drawn.
Sequence of UniProt P11712 (whole entry, looked up): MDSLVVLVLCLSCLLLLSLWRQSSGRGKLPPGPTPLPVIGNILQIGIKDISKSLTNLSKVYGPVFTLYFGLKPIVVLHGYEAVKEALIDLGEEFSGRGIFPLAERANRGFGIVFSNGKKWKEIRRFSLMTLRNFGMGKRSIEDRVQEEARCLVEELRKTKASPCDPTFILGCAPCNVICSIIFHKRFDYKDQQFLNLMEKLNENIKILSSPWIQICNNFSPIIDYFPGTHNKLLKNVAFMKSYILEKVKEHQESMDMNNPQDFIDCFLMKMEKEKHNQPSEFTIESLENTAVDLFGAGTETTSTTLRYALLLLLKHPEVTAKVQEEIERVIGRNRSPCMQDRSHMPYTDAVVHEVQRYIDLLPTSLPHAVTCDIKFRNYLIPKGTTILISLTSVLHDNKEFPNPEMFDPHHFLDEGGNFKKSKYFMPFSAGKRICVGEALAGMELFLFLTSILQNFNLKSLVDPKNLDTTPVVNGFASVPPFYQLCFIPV
Sequence of UniProt P33261 (whole entry, looked up): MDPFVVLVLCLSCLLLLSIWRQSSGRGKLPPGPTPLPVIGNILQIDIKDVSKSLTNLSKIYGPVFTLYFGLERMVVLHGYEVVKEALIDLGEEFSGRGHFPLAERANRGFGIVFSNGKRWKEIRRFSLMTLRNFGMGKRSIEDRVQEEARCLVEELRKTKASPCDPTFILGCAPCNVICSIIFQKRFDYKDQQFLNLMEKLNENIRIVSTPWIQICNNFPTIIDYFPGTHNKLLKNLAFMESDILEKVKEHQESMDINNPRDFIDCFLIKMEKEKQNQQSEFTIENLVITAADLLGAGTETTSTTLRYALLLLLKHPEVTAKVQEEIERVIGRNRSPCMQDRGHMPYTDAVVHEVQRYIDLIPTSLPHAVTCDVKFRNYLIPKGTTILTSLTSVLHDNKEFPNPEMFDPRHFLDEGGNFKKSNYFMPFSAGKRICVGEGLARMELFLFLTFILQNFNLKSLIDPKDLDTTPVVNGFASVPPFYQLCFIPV
Sequence of UniProt O15244 (whole entry, looked up): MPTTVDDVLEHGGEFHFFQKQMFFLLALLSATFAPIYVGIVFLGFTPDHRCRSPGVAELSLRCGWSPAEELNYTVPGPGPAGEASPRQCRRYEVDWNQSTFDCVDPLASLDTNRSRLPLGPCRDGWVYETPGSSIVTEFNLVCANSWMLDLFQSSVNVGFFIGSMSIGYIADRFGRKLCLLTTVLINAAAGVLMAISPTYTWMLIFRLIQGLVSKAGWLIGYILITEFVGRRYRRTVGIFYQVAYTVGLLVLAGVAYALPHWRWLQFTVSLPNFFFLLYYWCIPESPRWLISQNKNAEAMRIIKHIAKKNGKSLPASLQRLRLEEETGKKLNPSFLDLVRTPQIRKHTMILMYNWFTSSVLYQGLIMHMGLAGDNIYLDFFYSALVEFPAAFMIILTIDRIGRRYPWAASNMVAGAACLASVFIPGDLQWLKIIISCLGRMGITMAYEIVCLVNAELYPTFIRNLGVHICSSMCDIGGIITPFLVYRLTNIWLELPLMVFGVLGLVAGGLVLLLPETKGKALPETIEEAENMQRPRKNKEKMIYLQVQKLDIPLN
Sequence of UniProt P10632 (whole entry, looked up): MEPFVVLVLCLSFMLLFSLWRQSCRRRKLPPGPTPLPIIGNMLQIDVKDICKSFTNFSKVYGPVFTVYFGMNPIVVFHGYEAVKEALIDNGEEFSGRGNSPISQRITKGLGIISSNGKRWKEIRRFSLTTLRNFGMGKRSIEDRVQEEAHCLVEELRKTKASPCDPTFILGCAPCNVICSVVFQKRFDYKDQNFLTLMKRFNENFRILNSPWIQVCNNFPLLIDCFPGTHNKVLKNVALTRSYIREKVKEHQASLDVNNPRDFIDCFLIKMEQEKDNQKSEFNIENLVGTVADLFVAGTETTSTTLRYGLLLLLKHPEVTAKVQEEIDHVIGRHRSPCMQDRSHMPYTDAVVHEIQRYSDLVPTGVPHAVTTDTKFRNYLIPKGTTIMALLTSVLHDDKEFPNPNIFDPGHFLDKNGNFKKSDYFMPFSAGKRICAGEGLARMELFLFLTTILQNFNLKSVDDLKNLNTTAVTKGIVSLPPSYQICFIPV

| Structure (SMILES) | target or system | test | test system | conditions | endpoint | value |
| --- | --- | --- | --- | --- | --- | --- |
| Cc1noc(C)c1Cn1cc(N2C(=O)CN(Cc3cccc(O)c3)C2=O)cn1 |  |  | male Sprague-Dawley rat, plasma | oral, 100 mg/kg, 30 min, single dose | concentration | 105 ng/mL |
| COc1ccc(C(=O)O)cc1NC(=O)/C=C/c1ccc(-c2ccccc2C)cc1 | K562 | cell growth or viability |  |  | IC50 | 28.4 µM |
| Cn1nc2c(=O)n(C3CC3)ccc2c1[C@](O)(c1ccc(C(F)(F)F)nc1)C(F)(F)F |  | nephelometry | aqueous buffer | 30 min, pH 6.5 | kinetic solubility | 50 to 100 µM (≈ 21.6 to 43.2 µg/mL) |
| O=C(Nc1c2c(cc3c1CCC3)CCC2)NS(=O)(=O)/C=C/c1nccs1 | Cytochrome P450 2C8 (CYP2C8, Homo sapiens, UniProt P10632) | enzyme activity, inhibitor | human, liver microsomes | 10 µM, pH 7.4 | inhibition | 85.5% |
| Cc1cn(C2CC2)c(=O)c2nn(C)c(Cc3ccc(C(F)(F)F)nc3)c12 |  | nephelometry | aqueous buffer | 30 min, pH 6.5 | kinetic solubility | 130 to 260 µM (≈ 47.1 to 94.2 µg/mL) |
| COc1ccc2c(=O)n(C)c(-c3ccccc3)nc2c1 |  |  | male Sprague-Dawley rat, plasma | oral, 30 mg/kg, 15 min | concentration | 13.5 ng/mL |
| O=C(O)COc1cccc(-c2nc(Nc3ccc4[nH]ncc4c3)c3ccccc3n2)c1 | SLC22A2 (Homo sapiens, UniProt O15244) | transporter uptake, inhibitor, radiometric |  |  | IC50 | > 500 µM |
| CCn1ccc2c([C@@](O)(CC)c3cnc(C(F)(F)F)c(Cl)c3)n(C)nc2c1=O |  | nephelometry | aqueous buffer | 30 min, pH 6.5 | kinetic solubility | 40 to 80 µM (≈ 16.6 to 33.2 µg/mL) |
| COc1cccc(OC)c1-c1cc(C(=O)NC2(C(=O)O)C3CC4CC(C3)CC2C4)nn1-c1ccc(C(=O)N(C)CCCN(C)CCCN(C)C(=O)CN2CCN(CC(=O)[O-])CCN(CC(=O)[O-])CCN(CC(=O)[O-])CC2)cc1C(C)C.[177Lu+3] (stereo not drawn) | HT-29 tumour model |  | host not given, pancreas | 72 h, tumour-bearing | tracer uptake | 0.09 %ID/g |
| Cc1ccc(C(O)c2ccc(NC(=O)CN(C)c3ccccc3N3CCCC3=O)cc2)cc1 (stereo not drawn) | HepG2 | cell growth or viability, ATP luminescence |  | 48 h | CC50 | > 40 µM |
| O=C(c1ccc(F)cc1)C1CCN(CCn2c(=O)[nH]c3ccccc3c2=O)CC1 |  | metabolic stability | rat, liver microsomes | 45 min | compound remaining | 15.5% |
| CCn1cc(C2CC2)c2c(CN3CCC4(CCC4)CC3)n(C)nc2c1=O |  | nephelometry | aqueous buffer | 30 min, pH 6.5 | kinetic solubility | 80 to 160 µM (≈ 28.4 to 56.7 µg/mL) |
| COc1cccc(-c2n[nH]c(SCc3ccccn3)n2)c1OC |  |  | male Sprague-Dawley rat, plasma | oral, 100 mg/kg, 15 min, single dose | concentration | 72000 ng/mL |
| CCn1cnc2c([C@@](O)(CC)c3ccc(C(F)(F)F)nc3)n(C)nc2c1=O |  | nephelometry | aqueous buffer | 30 min, pH 6.5 | kinetic solubility | > 80 µM |
| Nc1c(C(=O)Nc2ccc(C3=NCCN3)cc2)cccc1C(=O)Nc1ccc(C2=NCCN2)cc1 | K562 | cell growth or viability |  |  | IC50 | > 137 µM |
| Cn1nc2c(=O)n(C3CC3)cnc2c1[C@](O)(c1ccc(C(F)(F)F)c(Cl)c1)C(F)(F)F |  | nephelometry | aqueous buffer | 30 min, pH 6.5 | kinetic solubility | 20 to 40 µM (≈ 9.34 to 18.7 µg/mL) |
| COC(=O)C1CCN(C(=O)c2cccc(NCc3cnc4nc(N)nc(N)c4n3)c2)CC1 | CYP2C19 (Homo sapiens, UniProt P33261) | enzyme activity, inhibitor, luciferase |  | 10 µM | inhibition | -19% |
| CC[C@@](O)(c1cnc(C(F)(F)F)c(Cl)c1)c1c2cnn(C3CC3)c(=O)c2nn1C |  | nephelometry | aqueous buffer | 30 min, pH 6.5 | kinetic solubility | 25 to 50 µM (≈ 10.7 to 21.4 µg/mL) |
| Nc1ccn([C@@H]2O[C@H](CO)[C@@H](O)C2(F)F)c(=O)n1 | MDA-MB-231 | cell growth or viability, MTT |  | 5 µg/mL, 24 h | viability | 56.6% |
| Nc1nc(N)c2nc(CNc3ccc(C(=O)N4CCC(C(=O)O)CC4)cc3)cnc2n1 | Cytochrome P450 2C9 (CYP2C9, Homo sapiens, UniProt P11712) | enzyme activity, inhibitor, luciferase |  | 10 µM | inhibition | -10.5% |
| CC(=O)c1nn(-c2ccc(C)cc2)/c(=N/N=C(\C)c2ccc(NC(=O)c3ccccc3)cc2)s1 | WI-38 | cell growth or viability, MTS |  | 78 nM, 24 h | viability | 91.8% |
